Assay results gathered from unrelated publications.
Parts stem from different laboratories: compare values within a part only. Substitutions count along the parent as printed.

Set 1
Target: RNA binding protein fox-1 homolog 2, RRM domain, GST-SBP tag (RBFOX2, Homo sapiens, UniProt O43251-10, residues 100-194)
Technique: RNA Bind-n-Seq
Molecule type: RNA
Matrix: in vitro
Tested at: 365 nM
Notes: natural RNA segment, single round, ends assumed
Reference: no-protein control
Reading: higher = stronger binding
Constant ends, left off below: GGGAGUUCUACAGUCCGACGAUC … UGGAAUUCUCGGGUGCCAA
Target sequence (chain): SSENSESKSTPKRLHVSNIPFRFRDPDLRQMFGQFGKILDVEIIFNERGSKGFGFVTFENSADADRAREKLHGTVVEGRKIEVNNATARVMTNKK
Strand | RBNS enrichment (R)
CAAUCGAUGACCUCAUGCCGGCCCAGAAGUGAAGCCUGGCCCUCGCCACCAUCAGGCUGCCGCUUCCUAACUUAUUAACCGGGCAGUGCCCGCCAUGCAUCCUUGAUGUU | 0.557
CUCUCUUCUAGGGCUUCCCACCAUCAGCCCCUCCCACUUGAGACUGGUCUUUGGGAGGCAAUAGGCCACCAUGCCUGGUCAGCACCAAUUCAAGCCAUGCCAGGAAUCUG | 0.357
AGGGGUACAGUUACCCUCCCCCACGCCAUCCUUGUAGGACUCCAUGCUGCCAGUUUCUUUUUUGGUUCCUUUCUGCCCAGGACUGCAUGAGUUUCCCAGCCCCAAGUGGG | 6.21
CUGGCGCAUGAAAUUCUAUUAAAAAUGCAUUCUUCUGAAUAAAAAGAGUAUUCACUAUUUAACUUCAAAACUAUGGCUGUGGUCUUCUAUUGGUCUGUUUUCCACUAACA | 0.512
GCCUGCCUUUCUUGAUGUCCAAUGAUGGGGCCUGGAAUGUAUGAGCUAGCAAGGCUUCUUCAGCUUAUUGACCAGCCAGGGUUUCUUCUUGCCUACUCCGGUGCCUCUAC | 2.09
GCUGGGGUUUGUUUGUGAGGAGAAAGAGUACUGUGGAAAACCUCUGCUUGAGUACCAUGUGGCCAGGCCUAUGUGGAUGGCUACUCCGUGCUGUGCGGCUUCACCAGCGG | 5.56
GAGUAAAAAAAAAAUCUUCUGCUGCACAUUUUGUUUAAGUGUUACUGUUUCUGCCUGUUAAUGCUGGGAACACAAAUAGUGCAAUUUGUGCAAUUGGAGAAUCUUGCCUU | 0.647
AGUCUUUGAAAUAUGGAAAAUCAGCAGUCUAAAGUUUGUUUUAAAUUCUAAAUUUAAAAAAUCUUCAAAUCUGAAUAUACCGCAAAUGUCAUGAGAAGUUUGAUUCAGUA | 0.426
AAUGUAGGAGAGAAUUAAGAAUCUGUUAAUUAAAAUCCAAACAGAGCUUAUUUCAGUAGUCAAGUUACCUGACAUGAUAAUUAUUUCUGCAGGAUAAUUGAUGUUUUAUG | 0.366
UCAGACGUGGGACUGCAGAGUCUGUUUGGAUUUGACACGGGGAGUCCUUGCUGACCUCCUGUCUCCCUAGAGCACAAACAGGAGGGGGCAAGCCCCUUGAAGGUUUGGAU | 0.349
AGACAUUCUGUAAUAAGAUUAAAACCUAAAGUCAGCUGUGUAACAUUCCAUGAAAGAUGCAUUCAUUUAUUGAAGAUGACAAAAAAGGGAGUCAGAUAUAUUCUGGAAGC | 0.403
UACAUCAUCGGAGGAGUCUGCUGUCCCUAACACAGAGGGAGACCUCGCUUUCCUACCCCAAGCAAGUAUUGGUGGCCAUGGCAGCGUGGCGAAGCCAUGCUGGGCGGGAG | 0.167

Set 2
Target: ABI1, truncated, D143A, DHFR fusion (Arabidopsis thaliana)
Technique: DHFR PCA, deep sequencing
Matrix: yeast
Notes: methotrexate growth selection, single substitutions
Added: (+)-ABA 2500 µM
Reference: wild-type fitted maximum
Reading: higher = stronger binding
Starting sequence: PYL1, truncated, DHFR fusion (Arabidopsis thaliana); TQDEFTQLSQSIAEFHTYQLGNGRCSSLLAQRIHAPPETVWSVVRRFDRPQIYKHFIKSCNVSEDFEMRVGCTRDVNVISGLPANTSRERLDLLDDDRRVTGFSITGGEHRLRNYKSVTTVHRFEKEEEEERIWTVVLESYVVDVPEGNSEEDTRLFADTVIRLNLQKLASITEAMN; partner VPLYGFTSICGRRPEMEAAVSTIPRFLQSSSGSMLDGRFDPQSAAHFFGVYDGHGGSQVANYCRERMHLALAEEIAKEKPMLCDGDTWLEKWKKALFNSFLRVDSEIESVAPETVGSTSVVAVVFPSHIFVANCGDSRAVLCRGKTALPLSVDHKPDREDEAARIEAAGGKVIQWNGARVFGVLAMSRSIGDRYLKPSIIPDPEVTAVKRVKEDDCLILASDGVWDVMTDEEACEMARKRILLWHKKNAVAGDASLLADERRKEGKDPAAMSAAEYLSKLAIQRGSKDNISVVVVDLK
Change | relative binding score
A35M | 88.5%
L20H | 101%
R74L | -8.59%
E125D | 103%
D65H | 101%
S63R | 96.6%
N114L | 64.8%
S117D | 32.9%
P50I | 65.6%
A13Y | 93%
Q19D | 103%
P50Q | 31.5%
N165V | 6.78%
P37S | 94.6%
D92L | 82.5%
T120W | 35.8%

Set 3
Target: Sal-like protein 4, full length isoform A (SALL4, Homo sapiens, UniProt Q9UJQ4, residues 1-1053)
UniProt Q9UJQ4, sequence (whole entry, looked up): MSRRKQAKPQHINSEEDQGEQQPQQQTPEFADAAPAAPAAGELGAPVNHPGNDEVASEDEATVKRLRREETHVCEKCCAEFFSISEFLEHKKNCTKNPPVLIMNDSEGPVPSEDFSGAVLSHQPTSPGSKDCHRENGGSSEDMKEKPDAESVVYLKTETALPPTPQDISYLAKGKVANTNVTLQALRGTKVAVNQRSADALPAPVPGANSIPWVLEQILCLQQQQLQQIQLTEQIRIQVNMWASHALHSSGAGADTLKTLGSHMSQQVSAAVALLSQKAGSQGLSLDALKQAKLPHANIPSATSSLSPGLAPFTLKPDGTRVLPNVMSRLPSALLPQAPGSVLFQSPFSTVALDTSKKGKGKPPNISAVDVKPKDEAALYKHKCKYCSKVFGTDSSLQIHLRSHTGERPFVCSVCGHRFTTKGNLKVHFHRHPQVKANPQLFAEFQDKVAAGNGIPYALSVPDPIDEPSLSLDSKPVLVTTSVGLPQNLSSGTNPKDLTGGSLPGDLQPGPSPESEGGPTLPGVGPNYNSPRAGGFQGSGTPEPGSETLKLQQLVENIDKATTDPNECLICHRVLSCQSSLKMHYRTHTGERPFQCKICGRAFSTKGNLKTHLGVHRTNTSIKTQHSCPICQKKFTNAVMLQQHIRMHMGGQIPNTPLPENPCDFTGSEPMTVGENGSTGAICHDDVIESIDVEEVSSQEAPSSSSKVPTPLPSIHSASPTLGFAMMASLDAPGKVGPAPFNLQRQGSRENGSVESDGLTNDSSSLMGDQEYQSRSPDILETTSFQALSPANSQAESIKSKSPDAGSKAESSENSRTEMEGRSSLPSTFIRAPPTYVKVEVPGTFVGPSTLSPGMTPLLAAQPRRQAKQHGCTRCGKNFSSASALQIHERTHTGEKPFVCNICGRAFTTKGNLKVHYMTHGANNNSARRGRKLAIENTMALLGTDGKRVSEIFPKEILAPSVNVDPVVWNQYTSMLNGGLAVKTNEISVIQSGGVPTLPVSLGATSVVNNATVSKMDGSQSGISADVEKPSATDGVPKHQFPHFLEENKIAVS
Technique: universal PBM
Molecule type: double-stranded DNA, one strand shown
Matrix: in vitro
Tested at: 600 nM
Notes: 8-mer, flanks averaged, mean of replicates
Reading: higher = stronger binding
Strand | E-score
AACGGTCT | -0.107
ACTCTAAG | 0.109
ACGCGCTC | -0.25
GTTTATGA | 0.366
ACTCGAAC | -0.0991
CTTTTTTC | 0.073
GCAAGGCA | -0.0658
ATGTACGA | 0.178
AACTGGGA | -0.143
GCTACACC | -0.17
TGGGGCAA | -0.12
ACAGGAAA | 0.192
GCCAGATA | 0.0117
TGGTCACA | 0.0103
GTGCCCGA | -0.237
AAGCACGT | -0.0105
CTGGGTAA | 0.0492
AGAACGCG | -0.139

Set 4
Target: CCNB2, cyclin fold, Cln2 fusion (human)
Technique: yeast growth competition, sequencing
Matrix: yeast
Notes: weak parent motif
Reference: not given
Reading: higher = stronger binding
Starting sequence: RBL2 docking peptide (human); STTRRRLFVENDS
Change | normalised enrichment score
STTRRRLIVENDS [F8I] | 0.397
STTRRRLFVENDW [S13W] | 0.388
MTTRRRLFVENDS [S1M] | 0.151
STTRRWLFVENDS [R6W] | 0.248
STTRRELFVENDS [R6E] | -0.412
STTRRRLSVENDS [F8S] | 0.168
STTLRRLFVENDS [R4L] | -0.338
STTRIRLFVENDS [R5I] | 0.134
STTWRRLFVENDS [R4W] | 0.0448
SGTRRRLFVENDS [T2G] | 0.572
GTTRRRLFVENDS [S1G] | 0.171
STTRRRNFVENDS [L7N] | -0.155
STTRRRWFVENDS [L7W] | 0.329
STTRRRDFVENDS [L7D] | 0.336
SITRRRLFVENDS [T2I] | -0.072

Set 5
Target: Histone acetyltransferase KAT6A, winged helix 1, GST fusion (KAT6A, Homo sapiens, UniProt Q92794, residues 1-85)
Technique: protein binding microarray
Molecule type: double-stranded DNA, one strand shown
Matrix: in vitro
Tested at: not given
Notes: 8-mer, flanks averaged, mean of 2 arrays, mostly near background
Reference: not given
Reading: higher = stronger binding
Residues (chain): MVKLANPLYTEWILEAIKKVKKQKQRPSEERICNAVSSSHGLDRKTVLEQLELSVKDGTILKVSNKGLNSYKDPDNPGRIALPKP
Strand | E-score
ATAGTCAA | -0.122
CGAAAGAA | -0.128
CATTTCGC | 0.127
GCGGGTCC | 0.341
CCAGGCCC | -0.16
CCGTTCGC | 0.272
ATTCGGAG | -0.158
ACGATCGT | -0.131
CGATTGAG | -0.0615
CACTCCAC | -0.27
GAAATAAA | -0.0954
CCCCCCGA | 0.13
GCGAGCGA | 0.0888
CATCAGGC | -0.0879
GTTGGAGA | -0.118
CACCCTCC | -0.113
CGCGTTTC | 0.337
CGTCTAGA | 0.123
ACGTCGCA | 0.171
GACATTGA | 0.0715
ATCTTACA | -0.165
AAGCTAGC | -0.0419
AAATTGAT | -0.108

Set 6
Target: Prothrombin, mature alpha-thrombin (F2, Homo sapiens, UniProt P00734)
Technique: aptamer microarray, sandwich
Molecule type: DNA with 2'F-ANA
Matrix: in vitro
Tested at: 200 nM
Notes: whole 15-mer aptamer, many near background
Added: Cy3 exosite-II aptamer, 400 nM
Reading: higher = stronger binding
Strand: GGTTGGTGTGGTTGG
Modification | mean fluorescence intensity [a.u.]
2'F-ANA at 3 7 9 10 11 13 | 550
2'F-ANA at 1 2 3 5 6 12 14 15 | 131
2'F-ANA at 3 5 7 8 13 14 | 62.5
2'F-ANA at 2 4 5 6 10 11 12 13 15 | 47.7
2'F-ANA at 1 2 4 5 7 8 9 11 14 15 | 53.1
2'F-ANA at 4 6 8 10 13 14 | 66
2'F-ANA at 2 4 5 6 8 12 13 | 101
2'F-ANA at 1 3 4 6 7 8 10 12 14 | 54.3
2'F-ANA at 4 5 10 12 13 15 | 84.7
2'F-ANA at 2 3 5 7 8 10 13 14 15 | 52.4
2'F-ANA at 2 4 5 6 9 11 13 15 | 52.7
2'F-ANA at 3 6 7 9 11 13 15 | 750
2'F-ANA at 3 6 10 12 14 15 | 353
2'F-ANA at 1 3 6 8 9 15 | 303
2'F-ANA at 1 4 5 8 10 | 45.4
2'F-ANA at 2 3 4 6 7 8 9 10 14 15 | 154
2'F-ANA at 1 2 4 7 9 12 13 15 | 172
2'F-ANA at 1 2 3 5 6 8 11 12 14 15 | 69.7
2'F-ANA at 1 6 8 10 11 14 | 62.8
2'F-ANA at 1 2 4 7 8 10 11 12 15 | 59.1
2'F-ANA at 1 2 3 5 6 7 10 13 15 | 127
2'F-ANA at 2 3 4 7 8 10 11 12 13 15 | 280

A few entries again (set 5):
Strand | E-score
GAAATAAA | -0.0954
CATTTCGC | 0.127
GCGGGTCC | 0.341
CGTCTAGA | 0.123
GCGAGCGA | 0.0888
CACTCCAC | -0.27
CGCGTTTC | 0.337
ATTCGGAG | -0.158
CGATTGAG | -0.0615
ACGTCGCA | 0.171
GACATTGA | 0.0715
CCAGGCCC | -0.16
